Assay results gathered from unrelated publications.
Protocols differ between the studies behind these lines.
UniProt O00444, sequence (whole entry, looked up): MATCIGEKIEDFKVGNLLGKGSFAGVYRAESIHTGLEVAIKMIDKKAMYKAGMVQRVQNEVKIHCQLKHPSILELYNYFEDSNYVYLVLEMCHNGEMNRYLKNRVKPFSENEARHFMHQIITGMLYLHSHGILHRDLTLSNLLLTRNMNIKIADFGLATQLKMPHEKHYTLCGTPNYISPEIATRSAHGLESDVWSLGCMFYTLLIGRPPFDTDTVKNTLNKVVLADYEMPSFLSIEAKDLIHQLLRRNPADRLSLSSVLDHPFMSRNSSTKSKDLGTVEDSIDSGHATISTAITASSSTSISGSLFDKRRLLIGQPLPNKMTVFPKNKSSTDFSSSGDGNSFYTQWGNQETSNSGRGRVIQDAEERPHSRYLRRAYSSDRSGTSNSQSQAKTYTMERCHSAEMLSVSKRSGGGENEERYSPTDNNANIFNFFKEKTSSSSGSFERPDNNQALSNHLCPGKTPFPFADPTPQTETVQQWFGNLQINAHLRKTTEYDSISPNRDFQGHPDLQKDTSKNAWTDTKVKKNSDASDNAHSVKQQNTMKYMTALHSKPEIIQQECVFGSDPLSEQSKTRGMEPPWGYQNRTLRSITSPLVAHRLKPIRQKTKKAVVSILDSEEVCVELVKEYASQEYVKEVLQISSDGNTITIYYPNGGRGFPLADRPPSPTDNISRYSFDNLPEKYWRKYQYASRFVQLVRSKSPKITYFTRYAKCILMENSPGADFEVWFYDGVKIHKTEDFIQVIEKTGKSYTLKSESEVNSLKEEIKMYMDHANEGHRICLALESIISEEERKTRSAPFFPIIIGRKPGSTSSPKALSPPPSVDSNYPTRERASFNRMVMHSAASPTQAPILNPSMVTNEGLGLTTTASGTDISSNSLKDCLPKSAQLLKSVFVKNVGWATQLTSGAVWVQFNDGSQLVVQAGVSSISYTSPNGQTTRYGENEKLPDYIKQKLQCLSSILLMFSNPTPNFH
UniProt P35462, sequence (whole entry, looked up): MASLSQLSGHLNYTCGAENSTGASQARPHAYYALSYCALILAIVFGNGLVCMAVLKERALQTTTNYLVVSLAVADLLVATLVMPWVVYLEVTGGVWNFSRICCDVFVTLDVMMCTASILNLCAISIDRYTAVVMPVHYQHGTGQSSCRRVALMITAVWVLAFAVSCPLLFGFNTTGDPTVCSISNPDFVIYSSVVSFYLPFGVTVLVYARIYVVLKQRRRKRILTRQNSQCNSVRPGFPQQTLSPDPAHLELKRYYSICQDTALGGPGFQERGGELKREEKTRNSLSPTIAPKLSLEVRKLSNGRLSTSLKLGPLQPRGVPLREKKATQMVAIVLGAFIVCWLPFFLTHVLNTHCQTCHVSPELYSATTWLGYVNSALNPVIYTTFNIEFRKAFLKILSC
UniProt P45983, sequence (whole entry, looked up): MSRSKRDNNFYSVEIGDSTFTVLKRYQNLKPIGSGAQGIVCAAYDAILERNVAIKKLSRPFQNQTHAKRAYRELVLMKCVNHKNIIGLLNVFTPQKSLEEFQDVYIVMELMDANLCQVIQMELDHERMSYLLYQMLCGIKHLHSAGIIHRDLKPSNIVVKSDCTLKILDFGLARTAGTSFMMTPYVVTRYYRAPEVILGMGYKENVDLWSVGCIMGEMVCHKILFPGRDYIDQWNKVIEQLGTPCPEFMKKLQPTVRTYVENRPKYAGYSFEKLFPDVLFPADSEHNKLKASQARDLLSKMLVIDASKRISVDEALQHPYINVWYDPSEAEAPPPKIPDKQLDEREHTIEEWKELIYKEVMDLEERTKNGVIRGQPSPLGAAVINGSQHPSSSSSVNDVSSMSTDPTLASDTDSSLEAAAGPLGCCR
UniProt P15735, sequence (whole entry, looked up): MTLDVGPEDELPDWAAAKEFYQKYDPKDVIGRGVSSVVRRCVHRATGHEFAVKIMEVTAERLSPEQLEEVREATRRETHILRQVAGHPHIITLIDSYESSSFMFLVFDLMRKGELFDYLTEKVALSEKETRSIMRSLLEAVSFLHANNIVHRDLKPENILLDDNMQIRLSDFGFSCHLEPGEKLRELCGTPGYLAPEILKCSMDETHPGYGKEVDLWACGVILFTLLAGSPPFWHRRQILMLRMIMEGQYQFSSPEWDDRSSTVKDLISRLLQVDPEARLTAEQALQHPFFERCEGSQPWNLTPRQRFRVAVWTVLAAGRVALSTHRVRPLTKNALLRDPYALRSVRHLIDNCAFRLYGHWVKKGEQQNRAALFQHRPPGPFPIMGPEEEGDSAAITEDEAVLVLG
UniProt P80192, sequence (whole entry, looked up): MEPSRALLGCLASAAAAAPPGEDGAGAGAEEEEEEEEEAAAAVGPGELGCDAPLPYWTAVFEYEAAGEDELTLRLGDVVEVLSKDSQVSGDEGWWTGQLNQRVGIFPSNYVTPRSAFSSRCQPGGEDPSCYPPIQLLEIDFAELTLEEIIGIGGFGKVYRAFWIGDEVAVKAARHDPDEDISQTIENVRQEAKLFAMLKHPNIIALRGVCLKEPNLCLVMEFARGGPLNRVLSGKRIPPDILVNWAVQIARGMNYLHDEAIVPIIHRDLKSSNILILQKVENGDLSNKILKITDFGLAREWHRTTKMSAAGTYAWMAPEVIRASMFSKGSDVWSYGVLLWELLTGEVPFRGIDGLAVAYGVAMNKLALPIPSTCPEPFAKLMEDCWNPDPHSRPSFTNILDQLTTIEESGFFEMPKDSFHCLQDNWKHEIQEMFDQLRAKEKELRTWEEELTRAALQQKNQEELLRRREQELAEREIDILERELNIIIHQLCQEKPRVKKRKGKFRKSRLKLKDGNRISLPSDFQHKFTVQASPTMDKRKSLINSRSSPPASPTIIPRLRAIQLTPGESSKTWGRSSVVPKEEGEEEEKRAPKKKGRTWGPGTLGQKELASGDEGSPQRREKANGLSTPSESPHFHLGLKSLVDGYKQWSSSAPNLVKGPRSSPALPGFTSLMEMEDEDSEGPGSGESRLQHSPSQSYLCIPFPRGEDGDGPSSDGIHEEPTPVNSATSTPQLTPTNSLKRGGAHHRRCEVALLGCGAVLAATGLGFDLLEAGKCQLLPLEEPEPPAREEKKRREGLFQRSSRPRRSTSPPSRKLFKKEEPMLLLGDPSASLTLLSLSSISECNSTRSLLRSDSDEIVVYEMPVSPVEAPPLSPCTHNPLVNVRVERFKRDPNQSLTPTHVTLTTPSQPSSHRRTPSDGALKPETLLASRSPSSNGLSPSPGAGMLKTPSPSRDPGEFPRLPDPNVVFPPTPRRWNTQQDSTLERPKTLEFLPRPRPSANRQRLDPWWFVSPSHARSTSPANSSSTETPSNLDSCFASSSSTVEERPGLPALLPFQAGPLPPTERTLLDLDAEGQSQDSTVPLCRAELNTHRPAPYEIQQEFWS

Structure (SMILES)	tested on	assay	system	setting	quantity	value
N=C(N)c1ccc(OCc2ccc(Br)cc2COc2ccc(C(=N)N)cc2)cc1		haemolysis	sheep	200 µg/mL, 1 h	haemolysis	12%
NCc1cc2c(cc1F)C(=O)N(C1CCC(=O)NC1=O)C2 (stereo not shown)			male CD-1 mouse, plasma	oral, 10 mg/kg, 10.2 min	concentration	52.2 ng/mL
N#C[C@@]12C[C@@H]1[C@@H](n1cnc3c(N[C@@H](C4CCC4)C4CC4)nc(I)nc31)[C@H](O)[C@@H]2O			male Wistar rat, plasma	oral, 10 mg/kg	Cmax	95.6 ng/mL
COc1ccc2c(c1)CN(C(=O)CCN1CCC(Cc3ccccc3)CC1)CC[S@@+]2[O-]			male human, plasma	intravenous, 0.6 mg/kg, healthy volunteers	Vd	52.4 L
N#CC1CCN(c2nc(-c3ccccn3)nc3ccccc23)C1 (stereo not shown)			PAMPA	10 µM, 3 h, pH 7.4	Papp	15.3 ×10⁻⁶ cm/s
N=C(N)c1ccc(OCCC(CCOc2ccc(C(=N)N)cc2)c2ccccc2)cc1 (stereo not shown)		haemolysis	sheep	200 µg/mL, 1 h	haemolysis	0.5%
CCONC(=O)N1CCC[C@H](C(=O)NCc2nc(-c3ccc(C#N)cc3)cs2)C1			male Sprague-Dawley rat, plasma	oral, 3 mg/kg	AUC	3.7 µM·h
O=C1CCC(N2Cc3cc(Nc4noc5ccccc45)ccc3C2=O)C(=O)N1 (stereo not shown)			female CD-1 mouse, plasma	intravenous, 3 mg/kg	clearance	59 mL/min/kg
O=C(c1ccc(F)cc1)C1CCN(CCn2c(=O)[nH]c3ccccc3c2=O)CC1		metabolic stability	dog, liver microsomes	1 h	compound remaining	43.5%
CCc1cc(-c2noc(-c3cc(OC)nc(C4CCCC4)c3)n2)cc(C)c1OC[C@@H](O)CO			Wistar rat, plasma	oral, 10 mg/kg, 6 h, single dose	concentration	869 ng/mL
CC[C@@](O)(c1cnc(C(F)(F)F)c(Cl)c1)c1c2cnn(C3CC3)c(=O)c2nn1C		metabolic stability	human, hepatocytes	0.5 µM, pH 7.4	hepatocyte CLint	1.3 µL/min/10⁶ cells
CC(=O)c1ccc(NS(=O)(=O)c2c(C)[nH]c(C)c2C(=O)N2CCC(F)(F)C2)cc1Cl	D(3) dopamine receptor (DRD3, Homo sapiens, UniProt P35462)	G protein activation, antagonist, BRET			IC50	24 µM
Cn1ccnc1-c1nc(N2CCCCC2)c2ccccc2n1		metabolic stability	mouse, liver microsomes		microsomal CLint	241 µL/min/mg
CC(=O)CC(c1ccccc1)c1c(O)c2ccccc2oc1=O (stereo not shown)		metabolic stability	Sprague-Dawley rat, hepatocytes	0.5 µM, pH 7.4	hepatocyte CLint	2.6 µL/min/10⁶ cells
N[C@@H](C[18F])C(=O)O			nude mouse, bone	intravenous, 110 min, tumour-bearing	tracer uptake	17.9 %ID/g
COc1ccc([C@@H]2Sc3ccccc3N(CCN(C)C)C(=O)[C@@H]2OC(C)=O)cc1		metabolic stability	Sprague-Dawley rat, hepatocytes	0.5 µM, pH 7.4	hepatocyte CLint	250 µL/min/10⁶ cells
CCOC(=O)[C@@]12C[C@@H]1[C@@H](n1ccc3c(NC)nc(C#Cc4ccc(Cl)s4)nc31)[C@H](O)[C@@H]2O			male Sprague-Dawley rat, plasma	oral, 10 mg/kg, 12 h	concentration	3.84 ng/mL
COc1ccc(CNc2nc(-c3ccc(C(=O)O)cc3)nc3c2c2ccccc2n3C)cc1Cl					logP	6.55
CN1CCC(Oc2ccc3c(=O)c4c(F)cc(Cl)cc4[nH]c3c2)CC1		metabolic stability	mouse, liver microsomes	1 µM, pH 7.4	microsomal CLint	7.15 µL/min/mg
Cn1nc2c(=O)n(C3CC3)ccc2c1[C@](O)(c1cnc(C(F)(F)F)c(Cl)c1)C(F)(F)F			Caco-2		Papp A→B	46 ×10⁻⁶ cm/s
Cc1cc(NS(=O)(=O)c2ccc(N=NN(C)O)cc2)no1		ABTS scavenging		20 µg/mL	inhibition	26.2%
O=C(COc1ccc(Cl)cc1)NC12CC(c3nnc([C@H]4C[C@@H](OC(F)(F)F)C4)o3)(C1)C2			human, plasma	oral, 100 mg, multiple doses, once daily, steady state, healthy volunteers	AUC	87.9 µM·h
NC(=O)C1CCN(c2nc(-c3ccccn3)nc3ccccc23)C1 (stereo not shown)		metabolic stability	mouse, liver microsomes		microsomal CLint	175 µL/min/mg

Structure (SMILES)	tested on	assay	system	setting	quantity	value
COc1cccc(-c2n[nH]c(SCc3ccccn3)n2)c1OC			male Sprague-Dawley rat, plasma	oral, 100 mg/kg, 8 h, single dose	concentration	3110 ng/mL
Cc1noc(C)c1Cn1cc(N2C(=O)CN(Cc3cccc(O)c3)C2=O)cn1			male Sprague-Dawley rat, plasma	intravenous, 1 mg/kg, 15 min	concentration	124 ng/mL
N=C(N)c1ccc(OCc2ccc(-c3ccccc3)cc2COc2ccc(C(=N)N)cc2)cc1		haemolysis	sheep	200 µg/mL, 1 h	haemolysis	30%
CC/C(=C(\c1ccc(O)cc1)c1ccc(OCCNC)cc1)c1ccccc1			female C57BL/6 mouse, plasma	oral, 1 mg/kg, single dose	Cmax	1 ng/mL
CNc1ncc2c(/C=C/C(=O)N3CCC(OC)CC3)nn(Cc3cccc(C(F)(F)F)c3)c2n1	Mitogen-activated protein kinase kinase kinase 9 (MAP3K9, Homo sapiens, UniProt P80192)	enzyme activity, inhibitor, radiometric		1 µM	remaining activity	102%
O=S(=O)(Nc1nccs1)c1ccc(N=NN(O)c2ccccc2)cc1		ABTS scavenging		20 µg/mL	inhibition	43.8%
Nc1ccc(-c2nc([C@H]3CCc4cc(-c5cc(Cl)ccc5-n5cnnn5)cc(=O)n43)c(F)[nH]2)c(F)n1			human, plasma	oral, 80 mg, single dose, fasted	Cmax	942 ng/mL
Cc1cc([C@@H](C)Nc2ccccc2C(=O)O)c2nc(N3CCC(F)(F)CC3)c(C#N)c(=O)n2c1	Serine/threonine-protein kinase PLK4 (PLK4, Homo sapiens, UniProt O00444)	binding, competition with immobilised ligand		10 µM	remaining binding	70%
N#Cc1ccccc1-c1nc(N2CCC(c3ccccn3)C2)c2ccccc2n1 (stereo not shown)			PAMPA	10 µM, 3 h, pH 7.4	Papp	35.8 ×10⁻⁶ cm/s
O=C(CCCCCCC(=O)Nc1ccc(CC[18F])cc1)NO			male nude mouse, stomach	intravenous, 30 min, tumour-bearing	tracer uptake	2.1 %ID/g
COc1cc2c3c(n(CCCNC(C)C)c(=O)c2cc1OC)-c1nc2c(cc1C3=O)OCO2			male CD-1 mouse, plasma	intravenous, 1 mg/kg	clearance	99.2 mL/min/kg
COc1ccc([C@@H](O)c2cc(-c3ncnc4cc(N5CCOCC5)ccc34)c(F)cc2Cl)nn1			human, plasma	oral, 200 mg, multiple doses, twice daily, patients	Cmax	2370 ng/mL
c1ccc(-c2nc(N3CCCCCC3)c3ccccc3n2)nc1			PAMPA	10 µM, 3 h, pH 7.4	Papp	35.7 ×10⁻⁶ cm/s
CCN1CCN(Cc2ccc(NC(=O)c3ccc(C)c(NC(=O)c4cncc(-c5cccs5)c4)c3)cc2C(F)(F)F)CC1			mouse, plasma	intraperitoneal, 10 mg/kg, single dose	MRT	2.76 h
CCn1cc(C)c2c([C@H](O)c3ccc(C(F)(F)F)nc3)n(C)nc2c1=O		metabolic stability	human, hepatocytes	0.5 µM, pH 7.4	hepatocyte CLint	1.8 µL/min/10⁶ cells
COc1cc(-c2cncc3c2CN(C)Cc2cc(N4CCNCC4)ccc2-3)cc(OC)c1OC	Mitogen-activated protein kinase 8 (MAPK8, Homo sapiens, UniProt P45983)	enzyme activity, inhibitor		1 µM	remaining activity	100%
O=C1CC[C@H](N2Cc3cc(N4CCN(CC5CCN(c6ccc([C@@H]7c8ccc(O)cc8CC[C@@H]7c7ccccc7)cc6)CC5)CC4)ccc3C2=O)C(=O)N1		equilibrium dialysis	human, liver microsomes	2.5 µM, 6 h	fraction unbound	0.098
C=CC(=O)N1CCC(COCC(=O)N2CCN(c3nc(-c4cnc(N)nc4C(F)F)nc(N4CCOC[C@@H]4C)n3)CC2)CC1	Phosphorylase b kinase gamma catalytic chain, liver/testis isoform (PHKG2, Homo sapiens, UniProt P15735)	binding, competition with immobilised ligand		1 µM	remaining binding	100%
CC(C)Oc1c(NC(=O)c2ccc(NC(=O)[C@H](CC(N)=O)NC(=O)c3ccc(NC(=O)c4ccc(C#N)cc4)cc3)cc2)ccc(C(=O)Nc2ccc(C(=O)O)cc2)c1O			male CD-1 mouse, plasma	subcutaneous, 5 mg/kg, single dose	MRT	3.13 h
N#Cc1ccc(-c2csc(CNC(=O)[C@H]3CCCN(C(=O)N4CCCC4)C3)n2)cc1		metabolic stability	human, liver microsomes	0.5 µM	microsomal CLint	120 µL/min/mg
N=C(N)c1ccc(OCCCCCCCCCOc2ccc(C(=N)N)cc2)cc1		haemolysis	sheep	200 µg/mL, 1 h	haemolysis	9.7%
c1ccc(C2CCN(c3nc(-c4ccco4)nc4ccccc34)C2)nc1 (stereo not shown)			PAMPA	10 µM, 3 h, pH 7.4	Papp	44.4 ×10⁻⁶ cm/s
O=C(Nc1ccc(CN2CCOCC2)c(C(F)(F)F)c1)c1ccc(C#Cc2cccc3cnccc23)cn1		metabolic stability	mouse, liver microsomes	20 min	compound remaining	22.3%

Repeated from above:
Structure (SMILES)	tested on	assay	system	setting	quantity	value
COc1ccc(CNc2nc(-c3ccc(C(=O)O)cc3)nc3c2c2ccccc2n3C)cc1Cl					logP	6.55
CN1CCC(Oc2ccc3c(=O)c4c(F)cc(Cl)cc4[nH]c3c2)CC1		metabolic stability	mouse, liver microsomes	1 µM, pH 7.4	microsomal CLint	7.15 µL/min/mg
Cn1nc2c(=O)n(C3CC3)ccc2c1[C@](O)(c1cnc(C(F)(F)F)c(Cl)c1)C(F)(F)F			Caco-2		Papp A→B	46 ×10⁻⁶ cm/s
Cc1cc(NS(=O)(=O)c2ccc(N=NN(C)O)cc2)no1		ABTS scavenging		20 µg/mL	inhibition	26.2%
